Measurements of several laboratories.
Compare with care: the assays were run in different laboratories. Several values in a cell are separate wells, animals, samples, runs or records.

`N=C(N)NCCC[C@@H]1NC(=O)[C@H](CCCNC(=N)N)NC(=O)[C@@H](CCCNC(=N)N)NC(=O)[C@@H](CCCNC(=N)N)NC(=O)[C@@H](Cc2ccc3ccccc3c2)NC(=O)[C@H](Cc2c[nH]c3ccccc23)NC(=O)[C@@H](Cc2ccc3ccccc3c2)NC1=O` gave a viability of 74 to 77% (human liver cells; MTS; 200 µg/mL, 24 h).
For `COc1cc(N2CCN(C(=O)C3CCCN3)CC2)ccc1Nc1ncc(Cl)c(Nc2ccccc2P(C)(C)=O)n1` (centres unmarked), the viability was 61% and 59% (NCI-H3122; cell growth or viability, CCK-8; 25 nM, 48 h).
With `c1cc2nc(c1)-c1cccc(n1)CCCc1ccc(cc1)OCCCCCCOc1ccc(cc1)CCC2` the viability was 51.5% (HEK293; cell growth or viability, MTT; 200 µM, 24 h).
With `CN1CCCNC(=O)c2cccc(c2)C(=O)NCCCN(C)CCCNc2cccc3c2C(=O)c2cccc(c2C3=O)NCCC1` the viability was 85.9% (Ca9-22; CCK-8; 0.05 µM, 48 h; relative to: untreated).
The viability of `CC[C@H](C)[C@@H](C(=O)N[C@@H](Cc1ccc(O)cc1)C(=O)N1CCC[C@H]1C(=O)N[C@@H](Cc1ccccc1)C(=O)O)n1cc(C(Cc2ccc(O)cc2)NC(=O)[C@@H](NC(=O)[C@H](CCCNC(=N)N)NC(=O)[C@@H](N)CC(=O)O)C(C)C)nn1` (some centres unmarked) is reported as 88.1% (HEK293; cell growth or viability, MTT; 50 µM, 24 h).
With `O=CCNCCOn1c(=O)n(OCCNCCO)c(=O)n(OCCNCCOn2c(=O)n(OCCNCCO)c(=O)n(OCCNCCO)c2=O)c1=O` the viability was 43.9% (HUVEC; cell growth or viability, MTT; 12.5 µg/mL, 48 h).
`O=C(Nc1cccc(CO)c1)c1cc(-c2ccccc2)n(-c2ccccc2)n1` has a viability of over 95% (Vero; cell growth or viability; 12.5 µM).
With `COc1cc(N2CCN(C(=O)CCOCCNC(=O)[C@@H]3CCCN3)CC2)ccc1Nc1ncc(Cl)c(Nc2ccccc2P(C)(C)=O)n1` the viability was 44% and 39% and 50% (NCI-H3122; CCK-8; 0.75 µM, 48 h).
For `CC(=O)N[C@@H](Cc1c[nH]c2ccccc12)C(=O)N[C@@H](Cc1c[nH]c2ccccc12)C(=O)N[C@@H](Cc1c[nH]c2ccccc12)C(=O)N[C@@H](Cc1c[nH]c2ccccc12)C(=O)NCCCC[C@@H]1NC(=O)[C@H](CCCNC(=N)N)NC(=O)[C@H](CCCNC(=N)N)NC(=O)[C@H](CCCNC(=N)N)NC(=O)[C@H](CCCNC(=N)N)NC(=O)[C@H](CCCNC(=N)N)NC1=O`, the viability was at least 74% (SK-OV-3; MTS; concentration not given, 24 h, up to 15 µM).
With `O=C(Nc1cccc(CNc2ncccn2)c1)c1cc(-c2ccccc2)n(-c2ccccc2)n1` the viability was over 95% (Vero; cell growth or viability; 12.5 µM).
The viability of `N=C(N)NCCC[C@@H]1NC(=O)[C@H](CCCNC(=N)N)NC(=O)[C@@H](CCCNC(=N)N)NC(=O)[C@@H](CCCNC(=N)N)NC(=O)[C@@H](C(c2ccccc2)c2ccccc2)NC(=O)[C@@H](Cc2c[nH]c3ccccc23)NC(=O)[C@@H](C(c2ccccc2)c2ccccc2)NC1=O` is reported as 55% (HEK293; cell growth or viability, MTS; 200 µg/mL, 24 h).
